Measured values of several laboratories.
Each numbered part is a random draw from the data of one study; scales do not carry over between parts. Substitutions count along the parent as printed.

Block 1 — technique: protein-binding microarray; molecule type: double-stranded DNA, one strand shown; matrix: in vitro; concentration: 250 nM; setting: 60-bp whole probe; together with: salmon DNA 0.4 mg/ml; reference: random background probes; direction: higher = stronger binding; shared flanks, not repeated: GCCTAGCAC … GTCTTGATTCGCTTGACGCTGCTG
Target: Interferon regulatory factor 7, full length, phosphomimetic (IRF7, Homo sapiens, UniProt Q92985, residues 1-503, S101K/S471D/S472D/S475D/S476D/S477D/S483D/S484D/S487D)
Construct (chain): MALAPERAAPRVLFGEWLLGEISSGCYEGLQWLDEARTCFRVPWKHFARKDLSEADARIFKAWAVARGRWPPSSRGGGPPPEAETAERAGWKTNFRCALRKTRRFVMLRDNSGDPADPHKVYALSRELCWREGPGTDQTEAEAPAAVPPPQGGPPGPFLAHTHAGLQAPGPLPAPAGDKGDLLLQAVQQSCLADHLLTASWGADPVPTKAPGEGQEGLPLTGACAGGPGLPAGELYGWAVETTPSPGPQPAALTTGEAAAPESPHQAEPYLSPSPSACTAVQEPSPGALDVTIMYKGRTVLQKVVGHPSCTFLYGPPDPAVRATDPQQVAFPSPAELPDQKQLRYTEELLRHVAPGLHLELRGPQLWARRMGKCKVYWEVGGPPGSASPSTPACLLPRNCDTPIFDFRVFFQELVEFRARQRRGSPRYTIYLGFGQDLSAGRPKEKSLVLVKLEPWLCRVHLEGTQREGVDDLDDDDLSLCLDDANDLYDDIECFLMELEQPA
| Sequence | log fluorescence [z-score] |
| --- | --- |
| GACGGTTTCGGGTTTGGGGACGTGCTA | 10.2 |
| TTAGATTTCAGACTGGGTTAGTGCTAG | 0.117 |
| GACGGTATCGGGACTGGGGGCGTGCTA | 0.844 |
| TCACTCTTTGGCAAAGCCAGGTGCTAG | 0.614 |
| TTAGGTTTCCTTTCCCTTTGGTGCTAG | 4.62 |
| TCATCTAAGGATTTCAGACTGTGCTAG | -0.294 |
| GACGGTTTCCGTTTCGGGACGTGCTAG | 8.55 |
| TTAGGACTGGGGATCGGTTAGTGCTAG | 0.321 |
| TTAGGTACCGGTATCGGTTAGTGCTAG | 2.4 |
| CCTGGACGGGAGTGCGGTGCGTGCTAG | -1.06 |
| GACGATCTCAGAATCGAGACGTGCTAG | 0.215 |

Block 2 — target: CCNA1, cyclin fold, Cln2 fusion (human); technique: yeast growth competition, sequencing; matrix: yeast; setting: weak parent motif; reference: not given; direction: higher = stronger binding
Starting sequence: PLK5 docking peptide (human); IFRKVGQRLLTQC
| Variant | normalised enrichment score |
| --- | --- |
| IFRKVGQRLATQC [L10A] | -0.459 |
| IFRKVGQRLLAQC [T11A] | -0.259 |
| IFRKVGARLLTQC [Q7A] | -0.0688 |
| IFRKVGQRLLTQA [C13A] | 0.000436 |
| IFAKVGQRLLTQC [R3A] | -0.307 |
| IFRAVGQRLLTQC [K4A] | -0.483 |
| IFRKVGQALLTQC [R8A] | 0.238 |

Block 3 — technique: DHFR PCA, deep sequencing; matrix: yeast; together with: (+)-ABA 1.4 µM; reference: wild-type fitted maximum; direction: higher = stronger binding
Target: ABI1, truncated, D143A, DHFR fusion (Arabidopsis thaliana)
Setting: methotrexate growth selection, single substitutions
Starting sequence: PYL1, truncated, DHFR fusion (Arabidopsis thaliana); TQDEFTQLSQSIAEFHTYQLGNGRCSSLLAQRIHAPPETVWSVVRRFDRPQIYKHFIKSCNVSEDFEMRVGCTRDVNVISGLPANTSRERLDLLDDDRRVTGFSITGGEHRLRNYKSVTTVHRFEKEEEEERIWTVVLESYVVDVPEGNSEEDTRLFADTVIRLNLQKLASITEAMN
| Variant | relative binding score [%] |
| --- | --- |
| L169F | -18.7 |
| L29H | 46.6 |
| E125W | 41.8 |
| E128G | 83.8 |
| C60Y | 10.7 |
| S104Q | -12.7 |
| V143N | -17.5 |
| P146G | 4.19 |
| H34D | 64.5 |
| T173Y | -14.2 |
| D144H | -7.45 |
| W134Y | 84.3 |
| T17E | 12.6 |
| N61S | 68.8 |

Block 4 — target: JUN, bZIP domain (human); technique: DHFR protein complementation; matrix: yeast; reference: wild-type JUN-FOS pair; direction: higher = stronger binding
Setting: single substitutions, most at no-binding floor
Starting sequence: JUN, bZIP domain (human); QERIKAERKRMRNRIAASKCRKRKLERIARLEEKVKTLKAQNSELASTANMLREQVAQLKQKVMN; partner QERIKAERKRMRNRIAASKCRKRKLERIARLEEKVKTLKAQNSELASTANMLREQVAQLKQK
| Variant | binding fitness [natural log] |
| --- | --- |
| E32Q | -0.475 |
| R30P | -1.15 |
| N42Y | -0.864 |
| S43I | -0.164 |
| E54L | -0.5 |
| A46Q | -0.121 |
| R30K | -0.279 |
| E32C | -0.781 |
| I28H | -0.986 |
| A29N | -0.393 |
| E44F | -0.414 |
| K39E | 0.0309 |
| T48H | -0.456 |
| L52F | -1.09 |
| Q41I | -0.175 |
| T37L | -0.0916 |

Block 5 — technique: protein binding microarray; molecule type: double-stranded DNA, one strand shown; matrix: in vitro; concentration: not given; reference: not given; direction: higher = stronger binding
Target: Histone acetyltransferase KAT6A, both winged helices, GST fusion (KAT6A, Homo sapiens, UniProt Q92794, residues 1-181)
Setting: 8-mer, flanks averaged, mean of 2 arrays, mostly near background
Construct (chain): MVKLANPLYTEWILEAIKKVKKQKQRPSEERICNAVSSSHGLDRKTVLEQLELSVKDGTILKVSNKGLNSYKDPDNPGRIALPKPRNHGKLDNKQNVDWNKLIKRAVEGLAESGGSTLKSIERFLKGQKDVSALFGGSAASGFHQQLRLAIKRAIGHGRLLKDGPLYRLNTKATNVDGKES
| Sequence | E-score |
| --- | --- |
| GATGTGCC | -0.0556 |
| ATGCAGGC | -0.0795 |
| AGAAACCA | -0.0649 |
| TAAGAATA | -0.0654 |
| GCTATCGA | 0.135 |
| ATTACGTC | -0.122 |
| CCAGGAGA | -0.212 |
| AATTCTAA | -0.0579 |
| AGCAGCCT | -0.245 |
| GATGAGGC | -0.121 |
| CGACGCAG | 0.186 |
| AAATCTGA | 0.0375 |
| AGTAAACT | -0.00553 |
| CTATATAG | -0.201 |
| GACCGCAC | 0.154 |
| AGCGGTGC | 0.112 |
| AAGGGACC | -0.0398 |
| CGAGTCCC | -0.0128 |
| AGGGCTGA | -0.191 |
| CATCTGTC | -0.0976 |
| CTATAGCC | 0.0203 |
| CTTAGATA | 0.00651 |
| CATCAGGC | -0.058 |
| ACCCGGGA | 0.195 |
| CTAAAAAG | -0.0611 |

Block 6 — technique: universal PBM; molecule type: double-stranded DNA, one strand shown; matrix: in vitro; concentration: not given; direction: higher = stronger binding
Target: Sal-like protein 4, full length isoform B (SALL4, Homo sapiens, UniProt Q9UJQ4-2, residues 1-616)
Setting: 8-mer, flanks averaged, mean of replicates
Construct (chain): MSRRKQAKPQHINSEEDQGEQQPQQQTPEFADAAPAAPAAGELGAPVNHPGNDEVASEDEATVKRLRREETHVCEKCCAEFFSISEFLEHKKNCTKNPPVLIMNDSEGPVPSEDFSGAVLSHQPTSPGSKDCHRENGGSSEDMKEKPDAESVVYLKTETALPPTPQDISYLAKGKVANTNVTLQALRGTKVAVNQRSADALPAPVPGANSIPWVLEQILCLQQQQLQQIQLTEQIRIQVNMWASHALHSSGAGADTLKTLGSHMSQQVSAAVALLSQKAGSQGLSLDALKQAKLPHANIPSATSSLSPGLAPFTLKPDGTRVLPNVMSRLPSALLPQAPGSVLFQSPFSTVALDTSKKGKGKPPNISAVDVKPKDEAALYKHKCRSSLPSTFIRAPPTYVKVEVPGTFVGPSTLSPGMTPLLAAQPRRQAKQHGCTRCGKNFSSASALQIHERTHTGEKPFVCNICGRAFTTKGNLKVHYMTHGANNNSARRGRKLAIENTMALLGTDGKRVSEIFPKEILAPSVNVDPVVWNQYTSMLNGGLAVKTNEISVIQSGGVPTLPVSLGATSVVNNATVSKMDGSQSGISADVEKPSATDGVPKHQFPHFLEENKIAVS
| Sequence | E-score |
| --- | --- |
| ACGAATAT | 0.343 |
| AGGGAGGA | -0.17 |
| GTTGGTTA | 0.0756 |
| TCGCGAGA | -0.119 |
| GGGCAAAA | 0.00152 |
| AGCAACAC | -0.135 |
| AAGGGCGA | -0.171 |
| ACCACTAT | 0.0917 |
| ACGTACAG | 0.0158 |
| ATCGCTAG | 0.00158 |
| ACGCGCTA | 0.0323 |
| GGCATGCC | -0.247 |
| CGCTGGTA | -0.0801 |
| CCCGGCCA | -0.389 |
| CTCGTGGA | -0.181 |
| CACACCAA | -0.00943 |
| ATTACGGC | 0.0365 |
| ACTCTGGC | -0.268 |
| CTTCAAAA | 0.189 |
| ACGCGCGC | -0.194 |
| GCGTGTTA | 0.0994 |
| ATAGCAAT | 0.294 |
| GGAGATAC | -0.208 |
| CCCGCCCC | -0.201 |
| TGAGAGCA | -0.055 |

Block 7 — technique: RNA Bind-n-Seq; molecule type: RNA; matrix: in vitro; concentration: 200 nM; setting: whole 134-nt RNA, ends assumed; together with: 150 mM LiCl; reference: input library; direction: higher = stronger binding; each molecule: 7-deaza-guanosine replaces G
Target: Ras GTPase-activating protein-binding protein 1, full length (G3BP1, Homo sapiens, UniProt Q13283)
Sequence of UniProt Q13283 (whole entry, looked up): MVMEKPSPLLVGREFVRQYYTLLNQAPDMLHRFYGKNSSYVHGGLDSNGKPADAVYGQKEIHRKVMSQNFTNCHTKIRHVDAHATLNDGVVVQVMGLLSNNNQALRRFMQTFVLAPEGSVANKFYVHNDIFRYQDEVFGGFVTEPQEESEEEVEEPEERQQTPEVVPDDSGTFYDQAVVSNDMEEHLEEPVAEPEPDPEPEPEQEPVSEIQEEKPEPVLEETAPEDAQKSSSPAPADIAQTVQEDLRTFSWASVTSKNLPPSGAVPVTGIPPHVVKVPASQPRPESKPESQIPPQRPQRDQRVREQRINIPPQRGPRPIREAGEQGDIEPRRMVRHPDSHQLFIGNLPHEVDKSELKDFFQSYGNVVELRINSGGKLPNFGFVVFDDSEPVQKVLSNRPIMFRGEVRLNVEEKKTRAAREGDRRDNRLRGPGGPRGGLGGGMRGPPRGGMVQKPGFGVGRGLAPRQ
Shared flanks, not repeated: GGGAGUUCUACAGUCCGACGAUC … UGGAAUUCUCGGGUGUCAAGG
| Sequence | log2 enrichment |
| --- | --- |
| AGUCCUGUGCUACACAUCGUAUGUACCGAAUCGGGGUUUUUGGGGUUUGGGGUGGGGAAAGUAUUAUGUUACGCCGUUCGGAUCUGCACU | -0.245 |
| CACAGACAACACGAAACCACACAGACACAGAGGGAAGGGGUUGGGAUGGGGACAGGGUGCACAGCAGGGCGGGGUAGGACCCCAGCCCCU | 0.51 |
| UCAAGUCCUGUGCUACACAUCGUAUGUACCGAAUCGGGUUUGGGUUUGGUUUGGGAAAGUAUUAUGUUACGCCGUUCGGAUCUGCACUUC | -0.675 |
| CAUGUUGAAAGACAUGCUUUUAUUUUUUUGUAAAACAAUAUAGGAGCUGUGUCUACUAUUAAAAGUGAAACAUUUUGGCAUGUUUGUUAA | -3.27 |
| UCCUGUGCUACACAUCGUAUGUACCGAAUCGGAAAAAAAGGUUUUUUUGGUUUUUUUGGAAAGUAUUAUGUUACGCCGUUCGGAUCUGCA | -2.16 |
| GUCCUGUGCUACACAUCGUAUGUACCGAAUCGGAAAAAGGGGAAAAAGGGAAAAAGGGAAAGUAUUAUGUUACGCCGUUCGGAUCUGCAC | 0.0307 |
| AGUCCUGUGCUACACAUCGUAUGUACCGAAUCGGGAAAAGGGAAAAGGGGAAAAGGGGAAAGUAUUAUGUUACGCCGUUCGGAUCUGCAC | 0.238 |
| AAGUCCUGUGCUACACAUCGUAUGUACCGAAUCGGUUUUUGGUUUUUGGUUUUUGGAAAGUAUUAUGUUACGCCGUUCGGAUCUGCACUU | -1.17 |
| CUGUGCUACACAUCGUAUGUACCGAAUCGGAAAAAAAGGGAAAAAAAGGGGAAAAAAAGGGAAAGUAUUAUGUUACGCCGUUCGGAUCUG | -0.272 |
| AGUCCUGUGCUACACAUCGUAUGUACCGAAUCGGUUUUUGGUUUUUGGGGUUUUUGGAAAGUAUUAUGUUACGCCGUUCGGAUCUGCACU | -0.901 |
| GUCCUGUGCUACACAUCGUAUGUACCGAAUCGGGGAAAAAGGGGAAAAAGGAAAAAGGGAAAGUAUUAUGUUACGCCGUUCGGAUCUGCA | 0.0646 |

Mixed results
| Substance | target | test | system | setting | how to read | endpoint | result |
| --- | --- | --- | --- | --- | --- | --- | --- |
| PhoQ, residues 284 288 289 292 302 303 ALASRC | PhoP, residues 12 14 15 18 19 NNFVT (Escherichia coli, UniProt P23836) | Sort-seq, item: YFP reporter | E. coli | PhoQ-PhoP variant library, together with: 10 µM Mg2+ | reference: high Mg2+ state, higher = stronger signaling | fold induction | 9.6 |

Excerpt of the above (block 4):
| Variant | binding fitness [natural log] |
| --- | --- |
| A46Q | -0.121 |
| R30K | -0.279 |
| E32C | -0.781 |
| I28H | -0.986 |
| A29N | -0.393 |
| E44F | -0.414 |
| K39E | 0.0309 |
| T48H | -0.456 |
| L52F | -1.09 |
